{"data": "Published values gathered from unrelated publications", "note": "Every numbered part comes from another study and shows a few of its results, in no order."}
{"data": "Block 1", "target": "Histone acetyltransferase KAT6A, both winged helices, GST fusion (KAT6A, Homo sapiens, UniProt Q92794, residues 1-181)", "method": "protein binding microarray", "form": "double-stranded DNA, one strand shown", "sample": "in vitro", "tested at": "not given", "notes": "8-mer, flanks averaged, mean of 2 arrays, mostly near background", "reference": "not given", "reading": "higher = stronger binding", "Construct (chain)": "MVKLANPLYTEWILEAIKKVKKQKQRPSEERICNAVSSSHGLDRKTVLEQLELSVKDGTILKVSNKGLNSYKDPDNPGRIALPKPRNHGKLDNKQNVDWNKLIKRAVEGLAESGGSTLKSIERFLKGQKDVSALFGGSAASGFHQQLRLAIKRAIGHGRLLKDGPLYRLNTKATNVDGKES"}
{"Oligonucleotide": "CATTAGTC", "E-score": -0.179}
{"Oligonucleotide": "AAGGAGGT", "E-score": -0.213}
{"Oligonucleotide": "GGCACTCA", "E-score": -0.0636}
{"Oligonucleotide": "GTGGCCCA", "E-score": -0.121}
{"Oligonucleotide": "CGTCCTAA", "E-score": -0.0936}
{"Oligonucleotide": "ACCTACTG", "E-score": -0.174}
{"Oligonucleotide": "CACCCGCG", "E-score": 0.336}
{"Oligonucleotide": "ATATAGAA", "E-score": 0.02}
{"Oligonucleotide": "CCTCCTTA", "E-score": -0.175}
{"data": "Block 2", "target": "TAR DNA-binding protein 43, full length, His tag (TARDBP, Homo sapiens, UniProt Q13148, residues 1-414)", "method": "RNA Bind-n-Seq", "form": "RNA", "sample": "in vitro", "tested at": "20 nM", "notes": "6-mer, flanks averaged, single round", "together with": "150 mM KCl", "reference": "input library", "reading": "higher = stronger binding"}
{"Oligonucleotide": "AUUGCU", "6-mer enrichment (R)": 0.589}
{"Oligonucleotide": "GCAACC", "6-mer enrichment (R)": 0.715}
{"Oligonucleotide": "AGCAGC", "6-mer enrichment (R)": 0.885}
{"Oligonucleotide": "CCCGUG", "6-mer enrichment (R)": 0.796}
{"Oligonucleotide": "UCCGGC", "6-mer enrichment (R)": 0.83}
{"Oligonucleotide": "AACACG", "6-mer enrichment (R)": 0.72}
{"Oligonucleotide": "UUAUGC", "6-mer enrichment (R)": 0.645}
{"data": "Block 3", "target": "RNA binding protein fox-1 homolog 2, RRM domain, GST-SBP tag (RBFOX2, Homo sapiens, UniProt O43251-10, residues 100-194)", "method": "RNA Bind-n-Seq", "form": "RNA", "sample": "in vitro", "tested at": "365 nM", "notes": "natural RNA segment, single round, ends assumed", "reference": "no-protein control", "reading": "higher = stronger binding", "Residues (chain)": "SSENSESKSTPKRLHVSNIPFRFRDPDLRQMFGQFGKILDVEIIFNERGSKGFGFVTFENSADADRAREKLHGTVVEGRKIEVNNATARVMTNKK"}
{"Oligonucleotide": "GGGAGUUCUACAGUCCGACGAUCCUUGACCCCAUUUAUGUGUAGGAGCACUACACCAUUGGUUUCCAAUACUGCACACAUAAGAUACAUACUUGUGUGCAGAAAGUAUCUUCCUCCAGGCUUGUAAUACCCUUUGGAAUUCUCGGGUGCCAA", "RBNS enrichment (R)": 0.361}
{"Oligonucleotide": "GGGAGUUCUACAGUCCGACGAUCAUUCAAAAUCAAGCUUUGAGCAGGGGAGUGAGGCAGCCAGAAGUGGGGGCAGAGGAGGGUGGCUCUGUUUCCCCAAGGCAAAGCUUAUGACCAAUGGGCCAUCGGACUGGUGGAAUUCUCGGGUGCCAA", "RBNS enrichment (R)": 1.05}
{"Oligonucleotide": "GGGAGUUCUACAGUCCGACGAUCAAAUUCCCGAAAGGACCUCUCGAAAGCAUGGAAUUUCCUGACUGUGCCAAGGGCCUGGAUAAAGGGGAACUACGGCAUCUUGGAGCUCACAAAUGUGAAUCAAGCAGUCCUGGAAUUCUCGGGUGCCAA", "RBNS enrichment (R)": 1.74}
{"Oligonucleotide": "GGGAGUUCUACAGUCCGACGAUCUGCCGCCAAUGGGCAGUGCCCUCAGGCCGAAGCCUCAAUCCCCCAUCUGAGCCAGGCCUAAUCCUCUAAUAGUGAUGGUUGGUUUGUCCUCCCAUAACUGCAGGUGGAUUUGGAAUUCUCGGGUGCCAA", "RBNS enrichment (R)": 0.159}
{"Oligonucleotide": "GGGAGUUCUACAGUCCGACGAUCUCAUCGAAUGGAAACAUGUUCUUGCAUGUGGAUGUGUGUUUCCCAGGCAGAGGGUCCUGCGCCCCCCAGCACUCCCCUGCCCUCUCCCACACCUCAGGUCCAGCGCACACUGGAAUUCUCGGGUGCCAA", "RBNS enrichment (R)": 15}
{"Oligonucleotide": "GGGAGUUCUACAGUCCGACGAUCAGAAAGCAGUUUUAGAAGGCCAUGACUCAAUUCUUAGGUUUGUAUGCUUAAACAUCUUAGGAAUUUUAAUAUAAAAAGAAAAGGCUUUCCCAUUUGCACUCUAUUUCAAAUGGAAUUCUCGGGUGCCAA", "RBNS enrichment (R)": 0.699}
{"Oligonucleotide": "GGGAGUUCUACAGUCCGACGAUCUCAGGUCCAGCCAGUCCAAGCACAUGGCUUCCCAUCUGGGUGAGCCCACUGUCCCACUCCCACAUGUCUGGGCACCUGCCCUGGGCUGAGGCCAGGCUGCUCCAAGGGCCUGGAAUUCUCGGGUGCCAA", "RBNS enrichment (R)": 0.226}
{"Oligonucleotide": "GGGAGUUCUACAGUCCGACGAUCUCCUCCCUGGGCCUGACAACGGGAGUGGUGGGUGGGUGAGAACAGGUUCUGAGAGGGGGCUUCUAGGAAGGCCCCAGCCCUAGUCCUAGGCGACUUGAAUAAAGUGGGAGUGGAAUUCUCGGGUGCCAA", "RBNS enrichment (R)": 0.57}
{"Oligonucleotide": "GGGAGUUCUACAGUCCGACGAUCAAUAAAAUUUAAGAAACAAAGGAUUCUGGGAACAGACAGGAAGGGCCCUAGGUUACAUUUUUGGUGAUGAUCCUCUCAGAACUUUUGUAAUUUUAUUUUAAAAUGUGUAUUGGAAUUCUCGGGUGCCAA", "RBNS enrichment (R)": 0.64}
{"data": "Other studies, line by line"}
{"Molecule": "PhoQ, residues 284 288 289 292 302 303 SLGVVW", "target": "PhoP, residues 12 14 15 18 19 GQALL (Escherichia coli, UniProt P23836)", "test": "Sort-seq, refers to: YFP reporter", "system": "E. coli", "setting": "PhoQ-PhoP variant library, together with: 10 µM Mg2+", "scale": "reference: high Mg2+ state, higher = stronger signaling", "measurement": "fold induction", "result": 15.1}
{"note": "A few entries again (block 3):"}
{"Oligonucleotide": "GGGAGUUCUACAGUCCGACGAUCAGAAAGCAGUUUUAGAAGGCCAUGACUCAAUUCUUAGGUUUGUAUGCUUAAACAUCUUAGGAAUUUUAAUAUAAAAAGAAAAGGCUUUCCCAUUUGCACUCUAUUUCAAAUGGAAUUCUCGGGUGCCAA", "RBNS enrichment (R)": 0.699}
{"Oligonucleotide": "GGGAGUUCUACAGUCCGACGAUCUCAGGUCCAGCCAGUCCAAGCACAUGGCUUCCCAUCUGGGUGAGCCCACUGUCCCACUCCCACAUGUCUGGGCACCUGCCCUGGGCUGAGGCCAGGCUGCUCCAAGGGCCUGGAAUUCUCGGGUGCCAA", "RBNS enrichment (R)": 0.226}
